Results of several laboratories.
Each numbered part is a random draw from the data of one study; scales do not carry over between parts. Positions count from the first letter of the parent shown.

Set 1
Target: RING finger protein unkempt homolog, zinc fingers 1-6, GST-SBP tag (UNK, Homo sapiens, UniProt Q9C0B0, residues 30-357)
Technique: RNA Bind-n-Seq
Form: RNA
Matrix: in vitro
Tested at: not given
Setting: RNA with constant flanks, human and mouse sites, ends assumed
Baseline: input RNA pool
Reading: higher = stronger binding
Target sequence (chain): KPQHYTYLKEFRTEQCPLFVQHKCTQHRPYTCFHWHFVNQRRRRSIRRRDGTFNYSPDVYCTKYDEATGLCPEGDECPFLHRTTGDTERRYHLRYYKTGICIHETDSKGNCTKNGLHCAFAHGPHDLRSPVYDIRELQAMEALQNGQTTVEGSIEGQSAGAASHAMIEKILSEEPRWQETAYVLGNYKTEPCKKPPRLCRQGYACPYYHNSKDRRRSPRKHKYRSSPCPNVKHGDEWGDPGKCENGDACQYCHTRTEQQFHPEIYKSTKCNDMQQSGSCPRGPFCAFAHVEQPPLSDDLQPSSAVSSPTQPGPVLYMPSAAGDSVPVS
The bound/input enrichment of `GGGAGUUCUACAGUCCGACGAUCUGUUUGGAAGGAAUGAUUCUUGCAGCAAAAUCAGUUGAUGAAAGAAGAGACUCUCAAAUGGUGGUAGACUCCUUCAAAUCUGGUUUUGAACCUCCAGGAGACUUUCCAUUUGAAGAUUACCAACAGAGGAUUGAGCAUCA` is reported as 0.0703 ratio.
With `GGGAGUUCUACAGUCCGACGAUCUGAUGAGAGAAGGAUCUGCAAUGCUGUUUCUCCAGACAAGGAUGUUGAUGGCUUUCAUGUAAUUAAUGUAGGACGAAUGUGUUUGGAUCAGUAUUCCAUGUUACCGGCUACUCCAUGGGGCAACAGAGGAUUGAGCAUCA` the bound/input enrichment was 0.365 ratio.
For `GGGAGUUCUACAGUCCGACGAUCUUAAAGAAACAUUCUCGUCUUCCUUUACCUUUAAUCCCCUAAUACCUAGUCUACUUUUUAAAUUUUCAGACUUCACUGCUUUUUGAAUUCAUAAUUCUAAUUUUCACAUUAUUGUUAAUGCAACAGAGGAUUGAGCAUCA`, the bound/input enrichment was 65.5 ratio.
For `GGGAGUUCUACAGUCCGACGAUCAACUGGUUUGAGACGUUCAUUGUGUUCAUGAUUCUCCUCAGUAGUGGUGCUUUGGCCUUUGAAGAUAUAUACAUUGAGCAACGGAAGACCAUCAAAACCAUGCUGGAGUAUGCUGACAAACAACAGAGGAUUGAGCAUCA`, the bound/input enrichment was 0.169 ratio.
`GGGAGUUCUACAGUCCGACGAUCUCCCACUCCUCGGCAGACAUCAACUCCAGUCUUCCUCCGAUGUCCACGUUCCAUCGUAGUGGCACAAACCAUUACAGCACCUCUUCCUGCACACCCCCUGCCAACGGAACAGACAGUAUACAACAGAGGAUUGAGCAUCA` gave a bound/input enrichment of 0.462 ratio.
With `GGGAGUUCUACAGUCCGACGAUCCCAGUCAUGAAGAUGGAGCCCCUGAAUAACCUGCAGGUGGCUGUUAAAAACAAUAUUGAUGUCUUCUACUUCAGCUGCCUCAUCCCACUCAAUGUGCUUUUUGUAGAAGAUGGCAAAAUGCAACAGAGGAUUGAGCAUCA` the bound/input enrichment was 0.143 ratio.
For `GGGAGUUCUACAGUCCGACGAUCGCACCCCCUGGUCGCCCUGAGGCGCAGCCUCCUCCUCUCAGCUCUGAGCAUAAAGAGCCGGUAGCCGGGGACGCAGUGCCCGGGCCAAAGGAUGGCAGCGCCCCAGAGGUCCGAGGCGCUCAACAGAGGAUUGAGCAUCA`, the bound/input enrichment was 0.0869 ratio.
For `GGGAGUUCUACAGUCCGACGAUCACCCAACCAGCAGAAAACCGGUUGCUGUGGUUCCACCAAAAUAUGGAACUUGAUUUUGGACAUUUUGACGAACGAGACAAAGCAUCUAGAAAUAUGAGAGGGUCACGGAUGAAUGGACUUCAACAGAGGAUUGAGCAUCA`, the bound/input enrichment was 0.664 ratio.
For `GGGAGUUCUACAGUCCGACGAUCCAAGCAGCUGACACAGGAUGAUGAUACUGAUGCGGUUGAGAUUGCUAUCGACAACACGGCUUUUAUGGACGAGUUCUUUUCUGAGAUUGAGGAAACUCGGCUUAACAUUGACAAGAUCUCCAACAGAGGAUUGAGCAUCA`, the bound/input enrichment was 0.116 ratio.
The bound/input enrichment of `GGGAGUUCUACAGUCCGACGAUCAUGACACCUCACUUCCCUAGAGAAGGCCUGCCUCCCCAUAGGGAAUCUGGGGGUUUCUUCUGGAACGGGGCGUGAGGACACAAGGAGGCCUCUGGGCCACGCCUCCCUACCAGAUGCAGGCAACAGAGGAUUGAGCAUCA` is reported as 0.0762 ratio.
`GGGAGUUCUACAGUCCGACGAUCAACCAAGGAACAGUGAUCCACUUUAACAACCCUAAAGUUCAGGCAUCUCUGGCAGCGAACACUUUCACCAUUACAGGCCAUGCUGAGACAAAGCAGCUGACAGAAAUGCUACCCAGCAUCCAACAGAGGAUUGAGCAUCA` has a bound/input enrichment of 0.183 ratio.

Set 2
Target: CCND3, cyclin fold, Cln2 fusion (human)
Technique: yeast growth competition, sequencing
Matrix: yeast
Setting: weak parent motif
Baseline: not given
Reading: higher = stronger binding
Starting sequence: CDKN1A docking peptide (human); SKACRRLFGPVDS; partner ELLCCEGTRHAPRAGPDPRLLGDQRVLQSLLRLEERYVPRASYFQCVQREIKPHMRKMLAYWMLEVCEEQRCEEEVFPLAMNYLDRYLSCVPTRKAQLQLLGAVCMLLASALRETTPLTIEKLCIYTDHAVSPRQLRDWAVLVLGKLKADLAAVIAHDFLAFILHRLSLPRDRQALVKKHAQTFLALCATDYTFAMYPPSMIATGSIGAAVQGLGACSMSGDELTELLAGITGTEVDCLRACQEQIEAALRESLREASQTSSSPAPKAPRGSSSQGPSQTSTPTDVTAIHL
For `SKACRRLFGGVDS [P10G]`, “normalised enrichment score” read 0.404.
`SKACRTLFGPVDS [R6T]` — result for “normalised enrichment score”: 0.428.
For `SKACRRLFGPVLS [D12L]`, “normalised enrichment score” read 0.0599.
`SKACSRLFGPVDS [R5S]`: “normalised enrichment score” -0.16.
For `SKACRRLFGPVFS [D12F]`, “normalised enrichment score” read 0.0616.
`SKACRRLMGPVDS [F8M]`: “normalised enrichment score” 0.00926.
For `SKAARRLFGPVDS [C4A]`, “normalised enrichment score” read 0.402.
`SKACRRAFGPVDS [L7A]` — result for “normalised enrichment score”: 0.168.
Under “normalised enrichment score”, `SKAKRRLFGPVDS [C4K]` is recorded as 0.283.
`SKECRRLFGPVDS [A3E]` — result for “normalised enrichment score”: 0.39.
Under “normalised enrichment score”, `SYACRRLFGPVDS [K2Y]` is recorded as 0.628.
For `SKACRRLFRPVDS [G9R]`, “normalised enrichment score” read 0.211.

Set 3
Target: CREBRF, bZIP domain (human)
Technique: DHFR protein complementation
Matrix: yeast
Setting: single substitutions, most at no-binding floor
Baseline: wild-type JUN-FOS pair
Reading: higher = stronger binding
Starting sequence: JUN, bZIP domain (human); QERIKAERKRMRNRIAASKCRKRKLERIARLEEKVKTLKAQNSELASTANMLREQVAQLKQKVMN; partner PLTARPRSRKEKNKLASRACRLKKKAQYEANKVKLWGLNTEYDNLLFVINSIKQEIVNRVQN
The binding fitness of `S47I` is reported as -1.48 natural log.
`A40N` gave a binding fitness of -1.55 natural log.
For `T48M`, the binding fitness was -1.1 natural log.
With `R53I` the binding fitness was -1.52 natural log.
`S43P` gave a binding fitness of -1.5 natural log.
`A40M` gave a binding fitness of -1.41 natural log.
For `I28L`, the binding fitness was -1.29 natural log.

Further values, each from its own experiment
`PhoQ, residues 284 288 289 292 302 303 MLMVEA` has a fold induction of 7.85 (PhoP, residues 12 14 15 18 19 AGCRL (Escherichia coli, UniProt P23836); Sort-seq, measured: YFP reporter; E. coli; PhoQ-PhoP variant library, added: 10 µM Mg2+; baseline: high Mg2+ state, higher = stronger signaling).

Excerpt of the above (set 2):
`SKECRRLFGPVDS [A3E]` — result for “normalised enrichment score”: 0.39.
Under “normalised enrichment score”, `SKAKRRLFGPVDS [C4K]` is recorded as 0.283.
